{"data": "Measurements of several laboratories", "note": "± gives the spread as reported."}
{"SMILES": "CCCC[C@H]1C(=O)N(C)[C@@H](CCCC)C(=O)N[C@@H](CCCNC(=O)CN2CCN(CC(=O)O)CCN(CC(=O)O)CCN(CC(=O)O)CC2)C(=O)N[C@H](C(=O)NCC(N)=O)CSCC(=O)N[C@@H](Cc2ccc(O)cc2)C(=O)N(C)[C@@H](C)C(=O)N[C@@H](CC(N)=O)C(=O)N2CCC[C@H]2C(=O)N[C@@H](Cc2c[nH]cn2)C(=O)N[C@@H](CC(C)C)C(=O)N(C)CC(=O)N[C@@H](Cc2c[nH]c3ccccc23)C(=O)N[C@@H](CO)C(=O)N[C@@H](Cc2c[nH]c3ccccc23)C(=O)N1C [gallium-68 labelled]", "test system": "NOD/SCID mice, CHO-hPD-L1 xenograft, brain", "setting": "60 min, added: blocking agent 50 µg co-injected", "tissue uptake": "0.38 ± 0.07 %ID/g"}
{"SMILES": "CC[C@H](C)[C@H](NC(=O)[C@H](CCCCN)NC(=O)CNC(=O)[C@H](CC(C)C)NC(=O)[C@H](Cc1ccccc1)NC(=O)[C@H](CCCCN)NC(=O)[C@H](CO)NC(=O)[C@H](Cc1ccccc1)NC(=O)[C@H](Cc1c[nH]c2ccccc12)NC(=O)[C@H](CCC(N)=O)NC(=O)[C@@H](NC(=O)[C@H](Cc1ccccc1)NC(=O)CCCCCNC(=O)CN1CCN(CC(=O)O)CCN(CC(=O)O)CCN(CC(=O)O)CC1)C(C)C)C(=O)N[C@@H](CCC(=O)O)C(=O)N1CCC[C@H]1C(=O)N[C@@H](CC(=O)O)C(=O)N[C@H](C(=O)N[C@@H](CO)C(=O)N[C@@H](CCC(N)=O)C(=O)N[C@H](C(=O)N[C@@H](CCC(N)=O)C(=O)N[C@@H](CC(=O)O)C(=O)N1CCC[C@H]1C(=O)N[C@@H](CC(N)=O)C(=O)N[C@@H](CC(=O)O)C(=O)N[C@@H](CCC(N)=O)C(=O)N[C@@H](Cc1ccc(O)cc1)C(=O)N[C@@H](CCC(=O)O)C(=O)N1CCC[C@H]1C(=O)N[C@@H](Cc1ccccc1)C(=O)O)C(C)C)C(C)C [copper-64 labelled]", "test system": "C57BL/6 mice, blood", "setting": "vehicle, intratracheal instillation", "tissue uptake": "0.73 ± 0.01 %ID/g"}
{"SMILES": "O=C([O-])CN1CCN(CC(=O)O)C[C@H](Cc2ccc(NC(=S)NCCCCC(NC(=O)CCCCCCC(=O)NCCCC[C@H](NC(=O)N[C@@H](CCC(=O)O)C(=O)O)C(=O)O)C(=O)O)cc2)N(CC(=O)[O-])Cc2cccc(n2)C1.[64Cu+2] (some centres unmarked)", "test system": "mice with PSMA+/- PC-3 tumours, PSMA+ PC-3 PIP tumour", "setting": "2 h post-injection, same-day comparison", "tissue uptake": "24.1 ± 10.1 %ID/g"}
{"SMILES": "C[C@H](O)[C@@H](NC(=O)[C@H]1CCCN1C(=O)[C@@H](CCCCN)NC(=O)[C@@H](CO)NC(=O)[C@@H](Cc1ccc(O)cc1)NC(=O)[C@@H](CC(N)=O)NC(=O)CCOCCOCCOCCNC(=O)CN1CCN(CC(=O)O)CCN(CC(=O)O)CCN(CC(=O)O)CC1)C(=O)N[C@H](CC(=O)O)C(=O)N[C@H](CCCNC(=N)N)C(=O)N[C@H](CCC(N)=O)C(=O)N[C@H](Cc1ccc(O)cc1)C(=O)N[C@H](Cc1c[nH]cn1)C(=O)N[C@H](Cc1ccccc1)C(N)=O [gallium-68 labelled]", "test system": "BALB/c nude mice U-87 MG tumour, liver", "setting": "intravenous, 1.85 MBq, 1 h, radiolabelled", "tissue uptake": "0.19 ± 0.02 %ID/g"}
{"SMILES": "[2H]C([2H])([18F])[C@]([2H])(N)C(=O)O", "test": "PET", "test system": "athymic nude mice, U-87 MG, muscle", "setting": "dose not given, 20 min post-injection", "tissue uptake": "1.21 ± 0.1 %ID/cc"}
{"SMILES": "CC(C)C[C@@H](NC(=O)[C@@H](CCCNC(=N)N)NC(=O)[C@@H](Cc1c[nH]cn1)NC(=O)[C@@H](Cc1c[nH]c2ccccc12)NC(=O)[C@@H](Cc1c[nH]cn1)NC(=O)[C@@H](Cc1ccccc1)NC(=O)[C@H](NC(=O)[C@@H](Cc1ccc(O)cc1)NC(=O)CNC(=O)CNC(=O)CCOCCOCCOCCNC(=O)CN1CCN(CC(=O)O)CCN(CC(=O)O)CC1)[C@H](C)O)C(=O)N[C@H](CC(N)=O)C(=O)N1CCC[C@@H]1C(=O)O [gallium-68 labelled]", "test": "gamma counting", "test system": "C57BL/6 mice, male, brain", "setting": "intravenous, 1.85 MBq, 120 min", "tissue uptake": "0.56 ± 0.07 %ID/g"}
{"SMILES": "CSCC[C@H](NC(=O)CNC(=O)[C@H](CCCCN)NC(=O)[C@H](CC(C)C)NC(=O)[C@@H]1CCCN1C(=O)[C@H](CO)NC(=O)[C@H](Cc1c[nH]cn1)NC(=O)[C@H](Cc1c[nH]c2ccccc12)NC(=O)[C@H](CCCNC(=N)N)NC(=O)[C@H](CC(C)C)NC(=O)[C@H](CCCNC(=N)N)NC(=O)[C@H](Cc1c[nH]c2ccccc12)NC(=O)[C@H](CS)NC(=O)CCCCCNC(=O)CN1CCN(CC(=O)O)CCN(CC(=O)O)CCN(CC(=O)O)CC1)C(=O)O [copper-64 labelled]", "test": "PET imaging", "test system": "BALB/c nude mice, kidney", "setting": "intravenous, dose not given, 4 h, Huh-7 tumour-bearing", "tissue uptake": "11 ± 1.31 %ID/g"}
{"SMILES": "CC[C@H](C)[C@H](NC(=O)[C@H](CCCNC(=N)N)NC(=O)[C@H](CCCCN)NC(=O)[C@H](Cc1ccc(O)cc1)NC(=O)[C@H](CC(=O)O)NC(=O)[C@H](C)NC(=O)CNC(=O)CCOCCOCCOCCNC(=O)CN1CCN(CC(=O)O)CCN(CC(=O)O)CCN(CC(=O)O)CC1)C(=O)N[C@H](C(=O)N[C@H](C(=O)N[C@@H](CCCCN)C(=O)N[C@H](C(=O)N[C@@H](CC(N)=O)C(N)=O)C(C)C)C(C)C)[C@@H](C)O [copper-64 labelled]", "test": "ex vivo gamma counting", "test system": "C57BL/6J male mice, B16-F10 tumour, liver", "setting": "intravenous, 1.85 MBq, 5 min", "tissue uptake": "2.72 ± 0.203 %ID/g"}
{"note": "Excerpt of the above:"}
{"SMILES": "CC[C@H](C)[C@H](NC(=O)[C@H](CCCCN)NC(=O)CNC(=O)[C@H](CC(C)C)NC(=O)[C@H](Cc1ccccc1)NC(=O)[C@H](CCCCN)NC(=O)[C@H](CO)NC(=O)[C@H](Cc1ccccc1)NC(=O)[C@H](Cc1c[nH]c2ccccc12)NC(=O)[C@H](CCC(N)=O)NC(=O)[C@@H](NC(=O)[C@H](Cc1ccccc1)NC(=O)CCCCCNC(=O)CN1CCN(CC(=O)O)CCN(CC(=O)O)CCN(CC(=O)O)CC1)C(C)C)C(=O)N[C@@H](CCC(=O)O)C(=O)N1CCC[C@H]1C(=O)N[C@@H](CC(=O)O)C(=O)N[C@H](C(=O)N[C@@H](CO)C(=O)N[C@@H](CCC(N)=O)C(=O)N[C@H](C(=O)N[C@@H](CCC(N)=O)C(=O)N[C@@H](CC(=O)O)C(=O)N1CCC[C@H]1C(=O)N[C@@H](CC(N)=O)C(=O)N[C@@H](CC(=O)O)C(=O)N[C@@H](CCC(N)=O)C(=O)N[C@@H](Cc1ccc(O)cc1)C(=O)N[C@@H](CCC(=O)O)C(=O)N1CCC[C@H]1C(=O)N[C@@H](Cc1ccccc1)C(=O)O)C(C)C)C(C)C [copper-64 labelled]", "test system": "C57BL/6 mice, blood", "setting": "vehicle, intratracheal instillation", "tissue uptake": "0.73 ± 0.01 %ID/g"}
